Assay results pooled from the literature.
Numbers after ± are the reported error.

CSCC[C@@H]1NC(=O)[C@H](C)NC(=O)[C@H]([C@@H](C)O)NC(=O)CNC(=O)[C@H](CC(C)C)NC(=O)[C@H](CCC(N)=O)NC(=O)[C@H](CCCNC(=N)N)NC(=O)[C@@H]2CSSC[C@@H]3NC(=O)[C@@H]4CCCN4C(=O)[C@H](C(C)C)NC(=O)[C@H](CCC(N)=O)NC(=O)[C@H](CCC(N)=O)NC(=O)CNC(=O)[C@H](CC(C)C)NC(=O)[C@@H]4CSSC[C@H](NC(=O)[C@H]([C@@H](C)O)NC(=O)[C@H](C)NC(=O)[C@H](CSSC[C@@H](C(=O)N[C@@H](CO)C(=O)N[C@@H](CCC(N)=O)C(=O)N[C@H](C(N)=O)[C@@H](C)O)NC(=O)[C@@H]5CCCN5C(=O)[C@H](CC(N)=O)NC1=O)NC(=O)[C@@H]1CCCN1C(=O)[C@H](CC(=O)O)NC(=O)[C@H](CSSC[C@H](NC(=O)[C@H](CCCNC(=N)N)NC(=O)[C@H](CCCNC(=N)N)NC(=O)[C@H](CO)NC(=O)[C@@H](N)CO)C(=O)N[C@@H](C(C)C)C(=O)N[C@@H](CCCNC(=N)N)C(=O)N[C@@H](CC(C)C)C(=O)N[C@@H](Cc1c[nH]cn1)C(=O)N[C@@H](CCC(=O)O)C(=O)N[C@@H](CO)C(=O)N4)NC3=O)C(=O)N[C@@H](Cc1ccc(O)cc1)C(=O)N[C@H]1CSSC[C@H](NC(=O)[C@H](Cc3ccccc3)NC(=O)[C@H](C)NC(=O)[C@H](CC(N)=O)NC(=O)[C@H](Cc3ccccc3)NC(=O)[C@H](Cc3ccccc3)NC(=O)[C@H](CCCNC(=N)N)NC1=O)C(=O)N[C@@H](Cc1ccc(O)cc1)C(=O)N2 — result for “body weight change”: 6.89 ± 7 g (Long-Evans rat, male; intracerebroventricular, 1.0 nmol, 5 days).
C=C(c1ncc(C(=O)O)cn1)c1cc2c(cc1C)C(C)(C)CCC2(C)C: “log2 fold change” -1.36 (RNA sequencing, item: Mta2; rat, brain; dose not given, 24 h; relative to: vehicle).
Under “protein level increase”, Cc1nc(C)c(C=[N+]([O-])C(C)(C)C)nc1C is recorded as 84.8% (Western blot, item: MEF2D; mouse, MPTP model, substantia nigra nuclei; 90 mg/kg).
For Oc1cc(C(F)(F)F)ccc1-c1nc2c(C(F)(F)F)cc(C(F)(F)F)cc2[nH]1, “MIC of colistin” read 0.125 µg/mL (Klebsiella pneumoniae; colistin potentiator; B9; 5 µM).
Cc1cc(O)c(C=O)c2c1C(=O)Oc1c(CO)c(O)c3c(c1O2)C(O)OC3=O (stereo not shown) gave an Ejaculatory latency of 999 ± 94.2 s (copulatory behaviour test; rat, male, streptozotocin-induced diabetes; 5 mg/kg, day 63).
Under “FGF21 mRNA level”, CC[C@H](C)[C@@H]1NC(=O)[C@H](Cc2ccc(O)cc2)NC(=O)[C@@H](N)CSSC[C@@H](C(=O)NCC(=O)N[C@@H](CCCCNC(=O)COCCOCCNC(=O)COCCOCCNC(=O)CC[C@H](NC(=O)CC[C@H](NC(=O)CCCCCCCCCCCCCCCCC(=O)O)C(=O)O)C(=O)O)C(=O)NCC(N)=O)NC(=O)[C@H](CC(N)=O)NC(=O)[C@H](CCC(N)=O)NC1=O is recorded as “increased” (RT-PCR; C57BL/6 mice, diet-induced obese, liver; subcutaneous, dose not given, 14 days).
CCn1cnc(C[C@H](NC(=O)c2nccnc2N)C(=O)N2CCC[C@H]2C(N)=O)c1 has a sleeping time of 47 ± 11 min (Swiss albino mice; iv, 10 µmol/kg, added: pentobarbital 50 mg/kg ip).
For Cn1cnnc1Sc1c2c(c(C#N)c3nc4ccccc4n13)CCCC2, “platelet thrombus coverage and volume” read “decreased” (flow chamber on collagen; mouse blood; 5 µM, shear 50 dyne/cm2).
CC(=O)[C@]12NC(C)(C)C[C@@]1(C)C(=O)C1=C2c2c(c3c4n2C(C)(C)CC2=C4[C@@]4(CC(C)(C)N[C@@](C)(C4)C2=O)CC3(C)C)C(=O)C(C)(C)N1 (racemic) has an inhibition of 83.7 ± 1.7% (acetic acid-induced writhing, writhing count; mouse; i.p., 1 mg/kg, 30 min).
CCOP(=O)(CC(=O)Nc1ccc(S(=O)(=O)N(CC(N)=O)c2ccc(N(CC(N)=O)S(=O)(=O)c3ccc(OC)cc3)c3ccccc23)cc1)OCC: mRNA level “increased” (item: HO-1, NQO1 and GPX4; APP/PS1 mice, hippocampus and frontal cortex; 40 mg/kg; relative to: untreated APP/PS1 mice).
CC[C@H]1[C@@H](O)[C@@H]2[C@H](CC[C@]3(C)[C@@H]([C@H](C)CCOS(=O)(=O)[O-])CC[C@@H]23)[C@@]2(C)CC[C@@H](O)C[C@@H]12.[Na+] — result for “whole-body lean mass”: 14.6 ± 0.3 g (EchoMRI; ob/ob NASH mouse model; oral, 3 mg/kg once daily, before treatment, baseline of 8 week study).
The out-circle rate of CC12CC(O)C3CC1(OC1OC(CO)C(O)C(O)C1O)C3(COC(=O)c1ccccc1)C(=O)O2 (stereo not shown) is reported as 70% (mice, reserpine-induced depression; 14 mg/kg, 7 days, within 15 s).
Under “hepatic free fatty acids”, CC/C=C\C/C=C\C/C=C\C/C=C\C/C=C\CCCCOC(CC)C(=O)O (stereo not shown) is recorded as “decreased” (APOE*3Leiden.CETP mice, high-fat/cholesterol diet; dose not given, 20 weeks; relative to: control).
COc1ccc2c(c1)c(CC(=O)OCC(=O)OC(C)(C)C)c(C)n2C(=O)c1ccc(Cl)cc1 — result for “latency of nociceptive response”: 13.7 ± 0.97 s (hot plate test; BALB/c mice; 50 mg/kg, 120 min).
CN(C)CCSC(=S)N1CCN(C(=O)/C=C/c2coc3ccc(F)cc3c2=O)CC1 has an inactivation effect of 69.5 ± 5.6% (tomato spotted wilt virus; viral infection, half-leaf method; Nicotiana glutinosa; 500 µg/mL).
For Cc1cnc(Nc2cc(C)c(C)c(C)c2)nc1Nc1ccc2oc(=O)[nH]c2c1, STAT5b phosphorylation read “inhibited” (item: phospho-STAT5b; rat, OVA asthma model, whole lung homogenate; intratracheal, dose not given, 2 h after OVA challenge; relative to: OVA vehicle).
For CCN(CC)CCSC(=S)N1CCN(C(=O)/C=C/c2coc3cc(OC)ccc3c2=O)CC1, the curative effect was 56.5 ± 3.9% (tomato spotted wilt virus; viral infection, half-leaf method; Nicotiana glutinosa; 500 µg/mL).
COc1ccc(C2CC(c3ccc(C)cc3)=Nc3ccccc3S2)cc1 (stereo not shown) has a body weight of 177 ± 4.88 g (Wistar rat, STZ-induced diabetes; oral, 10 mg/kg once daily, day 28).
The spreading cells of CC(C)[C@H](NC(=O)CN)C(=O)N[C@@H](CCCCN)C(=O)NCC(=O)N[C@@H](CC(=O)O)C(=O)N[C@@H](CCCCN)C(=O)NCC(=O)N[C@@H](CC(N)=O)C(=O)N1CCC[C@H]1C(=O)NCC(=O)N[C@@H](Cc1c[nH]c2ccccc12)C(=O)N1CCC[C@H]1C(=O)NCC(=O)N[C@@H](C)C(=O)N1CCC[C@H]1C(=O)O is reported as 20% (B104 neuroblastoma, rat; 100 µg/mL coating, peptide-coated plates).
Under “cores discordant with pathology”, O=C([O-])CN1CCN(CC(=O)[O-])CCN(CC(=O)NC[C@H]2CC[C@H](C(=O)N[C@H](Cc3cnc4ccccc4c3)C(=O)NCCCC[C@H](NC(=O)N[C@@H](CCC(=O)O)C(=O)O)C(=O)O)CC2)CCN(CC(=O)[O-])CC1.[64Cu+2] is recorded as 12.9% (prostate cancer patients, biopsy cores; cut-off 66 CPM).
CCCCCCOC(=O)Cc1c(C)n(C(=O)c2ccc(Cl)cc2)c2ccc(OC)cc12 — result for “latency of nociceptive response”: 16.4 ± 0.66 s (hot plate test; BALB/c mice; 100 mg/kg, 60 min).
The IC50 of C=CC(=O)N1C[C@H](C)N(c2nc(OC[C@@]34CCCN3C[C@H](F)C4)nc3c(F)c(-c4ccc(F)c5sc(N)c(C#N)c45)c(C(F)(F)F)cc23)C[C@H]1C is reported as 0.085 µM (item: pERK; mouse, MIA PaCa-2 Matrigel plug; single dose).
Cn1ccc(-c2cc(Cl)c(Cl)c3[nH]c4c(c23)CN(C(=O)CO)CC4)n1 gave an IC50 of 16.2 µM (plasma CXCL10, inhibitor; cGAS I309T mouse, whole blood; added: 100 bp dsDNA).
Under “histological score decrease”, COC(=O)[C@H](CSSC(C)(C)[C@H](NC(=O)[C@H](CCC(=O)NC[C@H](O)[C@@H](O)[C@H](O)[C@H](O)CO)NC(=O)[C@H](CCC(=O)O)NC(=O)[C@H](CCC(=O)NC[C@H](O)[C@@H](O)[C@H](O)[C@H](O)CO)NC(=O)[C@H](CCC(=O)O)NC(=O)[C@H](CCC(=O)NC[C@H](O)[C@@H](O)[C@H](O)[C@H](O)CO)NC(=O)CC[C@H](NC(=O)c1ccc(NCc2cnc3nc(N)[nH]c(=O)c3n2)cc1)C(=O)O)C(=O)O)NC(=O)CC[C@H](NC(=O)c1ccc(NCc2cnc3nc(N)nc(N)c3n2)cc1)C(=O)O is recorded as 93% (item: bone resorption; Lewis rat, adjuvant-induced arthritis; 500 nmol/kg twice weekly × 2; direction not given).
Under “Ho-1 and Nqo1 protein level”, C[C@H](NC(=O)CCCCCNC(=S)Nc1ccc2c(c1)C(=O)OC21c2ccc(O)cc2Oc2cc(O)ccc21)C(=O)N[C@@H](C)C(=O)N1CCC[C@H]1C(=O)N[C@@H](CCC(=O)O)C(=O)N1CCC[C@H]1C(=O)N[C@@H](CCC(=O)O)C(=O)N[C@H](C(=O)NCC(=O)N[C@@H](CCC(=O)O)C(=O)O)[C@@H](C)O is recorded as “increased” (Western blot; mouse, liver ischaemia-reperfusion, liver; intravenous, 15 mg/kg).
Under “log2 fold change”, C=C(c1ccc(C(=O)O)c(F)c1)c1cc2c(cc1C)C(C)(C)C=CC2(C)C is recorded as -0.76 (RNA sequencing, item: Arl11 mRNA; rat, brain; dose not given, 24 h, single dose; relative to: vehicle).
CSc1cc(C)[nH]c(=O)c1CN1CCc2c(Cl)c3c(c(C)c2C1=O)OC(C)(C1CCC(N(C)C)CC1)O3 (stereo not shown) gave an H3K27me3 reduction of 89% (mouse KARPAS-422 xenograft, tumour; oral, 25 mg/kg once daily, day 12).
The body weight of COc1ccc(C2CC(c3ccc(C)cc3)=Nc3ccccc3S2)cc1OC (stereo not shown) is reported as 188 ± 4.61 g (Wistar rat, STZ-induced diabetes; oral, 10 mg/kg once daily, day 1).
Under fasting insulin, CCN(CC)C(=O)c1ccc(-c2cc(NCCCN3CCCCC3)c3ccccc3n2)cc1 is recorded as “decreased” (diet-induced obese mice; food admixture, 0.05% w/w in diet, 2 weeks).
O=Cc1c(O)ccc2ccccc12 — result for “log2 fold change”: -3.32 (HUVEC; RNA sequencing, item: PDGFB; 75 µM, 24 h; relative to: DMSO).
CSCCNc1nc(SCCC(F)(F)F)nc2c1ncn2[C@@H]1O[C@H](COP(=O)(O)OP(=O)(O)C(Cl)(Cl)P(=O)(O)O)[C@@H](O)[C@H]1O: “high residual platelet reactivity” 55% (ADP-induced platelet aggregation, light transmittance aggregometry; human patients, platelet-rich plasma; dose not given, 30 min, aggregation above 59%, added: ADP 20 µM; relative to: patients).

For quick reference, copied from above:
The spreading cells of CC(C)[C@H](NC(=O)CN)C(=O)N[C@@H](CCCCN)C(=O)NCC(=O)N[C@@H](CC(=O)O)C(=O)N[C@@H](CCCCN)C(=O)NCC(=O)N[C@@H](CC(N)=O)C(=O)N1CCC[C@H]1C(=O)NCC(=O)N[C@@H](Cc1c[nH]c2ccccc12)C(=O)N1CCC[C@H]1C(=O)NCC(=O)N[C@@H](C)C(=O)N1CCC[C@H]1C(=O)O is reported as 20% (B104 neuroblastoma, rat; 100 µg/mL coating, peptide-coated plates).
Under “cores discordant with pathology”, O=C([O-])CN1CCN(CC(=O)[O-])CCN(CC(=O)NC[C@H]2CC[C@H](C(=O)N[C@H](Cc3cnc4ccccc4c3)C(=O)NCCCC[C@H](NC(=O)N[C@@H](CCC(=O)O)C(=O)O)C(=O)O)CC2)CCN(CC(=O)[O-])CC1.[64Cu+2] is recorded as 12.9% (prostate cancer patients, biopsy cores; cut-off 66 CPM).
CCCCCCOC(=O)Cc1c(C)n(C(=O)c2ccc(Cl)cc2)c2ccc(OC)cc12 — result for “latency of nociceptive response”: 16.4 ± 0.66 s (hot plate test; BALB/c mice; 100 mg/kg, 60 min).
The IC50 of C=CC(=O)N1C[C@H](C)N(c2nc(OC[C@@]34CCCN3C[C@H](F)C4)nc3c(F)c(-c4ccc(F)c5sc(N)c(C#N)c45)c(C(F)(F)F)cc23)C[C@H]1C is reported as 0.085 µM (item: pERK; mouse, MIA PaCa-2 Matrigel plug; single dose).
Cn1ccc(-c2cc(Cl)c(Cl)c3[nH]c4c(c23)CN(C(=O)CO)CC4)n1 gave an IC50 of 16.2 µM (plasma CXCL10, inhibitor; cGAS I309T mouse, whole blood; added: 100 bp dsDNA).
